Measured values collected from several papers.
Numbers after ± are the reported error.

The chains behind the UniProt entries cited, without tags or fusion partners.
UniProt P33261, whole entry: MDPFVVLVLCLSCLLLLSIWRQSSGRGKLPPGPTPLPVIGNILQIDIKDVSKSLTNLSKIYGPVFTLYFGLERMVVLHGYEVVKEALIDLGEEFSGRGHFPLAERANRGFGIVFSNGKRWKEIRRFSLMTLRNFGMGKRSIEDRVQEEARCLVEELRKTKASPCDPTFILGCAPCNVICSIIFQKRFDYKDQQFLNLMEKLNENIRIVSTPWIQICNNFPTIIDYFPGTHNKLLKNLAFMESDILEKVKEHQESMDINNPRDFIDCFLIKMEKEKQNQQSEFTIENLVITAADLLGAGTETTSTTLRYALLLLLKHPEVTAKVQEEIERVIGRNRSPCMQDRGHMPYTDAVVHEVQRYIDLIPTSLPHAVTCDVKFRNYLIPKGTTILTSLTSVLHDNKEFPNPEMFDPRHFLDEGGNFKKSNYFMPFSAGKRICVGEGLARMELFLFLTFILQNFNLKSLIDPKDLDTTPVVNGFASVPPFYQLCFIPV

| Compound | target or system | test | test system | setting | measurement | result |
| --- | --- | --- | --- | --- | --- | --- |
| Cc1cc(SCc2sc(-c3ccc(OCC(F)(F)F)c(F)c3)nc2C)ccc1OCC(=O)O | HEK293T |  |  | 18 h | CC50 | > 50 µM |
| COC(=O)[C@@H]1C(c2nc3cc(C(F)(F)F)ccc3s2)=Cc2cc3c(cc2[C@H]1c1cc(OC)c(OC)c(OC)c1)OCO3 | mouse splenocytes uninfected | Alamar Blue |  | 48 h | CC50 | > 100 µM |
| Cc1cc(SCc2sc(-c3ccc4c(c3)OCO4)nc2C)ccc1OCC(=O)O | HEK293T |  |  | 18 h | CC50 | > 50 µM |
| Cc1n[nH]c(C)c1CCOC(=O)c1cccc2c1oc(=O)n2C | CYP2C19 (Homo sapiens, UniProt P33261) | inhibitor |  | 10 µM | inhibition | 6.3% |
| Nc1ncc(-c2ccc3ncnc(N4CCc5cc(F)c(Cl)cc54)c3c2)cn1 |  |  | CD1 mouse, plasma | intraperitoneal, 50 mg/kg | AUC(0-t) | 39500 ng·h/mL |
| COc1ccc(CC(=O)OCc2ccc(-n3cccn3)cc2)cc1F |  |  | BALB/c mouse, plasma | intravenous, 2 mg/kg | clearance | 3.21 mL/min/kg |
| Cc1cc(SCc2sc(-c3c(Cl)cccc3Cl)nc2C)ccc1OCC(=O)O | HEK293T |  |  | 18 h | CC50 | > 100 µM |
| CCCSc1nc(N[C@@H]2C[C@H]2c2ccc(F)c(F)c2)c2nnn([C@@H]3C[C@H](O)[C@@H](O)[C@H]3O)c2n1 |  |  | rat, female, plasma | oral, 60 mg/kg/day ticagrelor, week 26 | AUC | 30.5 µM·h |
| COc1cc([C@@H]2c3cc4c(cc3[C@@H](CC(C)(C)O)[C@H]3COC(=O)[C@H]23)OCO4)cc(OC)c1OC | HepG2 | Alamar Blue |  | 48 h | CC50 | > 100 µM |
| CC(C)n1nnc(-c2cc(O)cc(Nc3ncnn4ccc(CN5CCC(N)CC5)c34)c2)n1 |  |  | mouse, plasma | subcutaneous, 10 mg/kg, 90 min | total plasma concentration | 2.5 ± 2.1 µM |
| Cc1cc(SCc2sc(-c3ccc4nonc4c3)nc2C)ccc1OCC(=O)O | HEK293T |  |  | 18 h | CC50 | > 100 µM |
| COC(=O)[C@@H]1C(C=Nc2cc(Cl)ccc2O)=Cc2cc3c(cc2[C@H]1c1cc(OC)c(OC)c(OC)c1)OCO3 | mouse splenocytes uninfected | Alamar Blue |  | 48 h | CC50 | 79.3 ± 7.9 µM |

A few entries again:
| Compound | target or system | test | test system | setting | measurement | result |
| --- | --- | --- | --- | --- | --- | --- |
| Cc1cc(SCc2sc(-c3ccc(OCC(F)(F)F)c(F)c3)nc2C)ccc1OCC(=O)O | HEK293T |  |  | 18 h | CC50 | > 50 µM |
